Assay results of several laboratories.
Numbered parts are unrelated; each lists some results of a single study. Substitutions count along the parent as printed.

Series 1
Target: Histone acetyltransferase KAT6A, winged helix 1, GST fusion (KAT6A, Homo sapiens, UniProt Q92794, residues 1-85)
Method: protein binding microarray
Form: double-stranded DNA, one strand shown
Sample: in vitro
Tested at: not given
Notes: 8-mer, flanks averaged, mean of 2 arrays, mostly near background
Baseline: not given
Direction: higher = stronger binding
Endpoint: E-score
Target sequence (chain): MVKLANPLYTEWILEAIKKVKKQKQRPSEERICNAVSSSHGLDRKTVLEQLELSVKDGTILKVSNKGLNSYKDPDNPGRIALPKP
GCGGGGAA: 0.239
CTCGTAAC: 0.115
GAATGGCC: 0.0708
GGGTAGCA: 0.177
ATAGTGAC: -0.062
CTGCTTTC: -0.206
ACCCGAAA: 0.0532
ACAATGGG: -0.173
AAGCCGTA: 0.368
CCACTAGA: -0.194
CAAATATC: -0.242
CATTTCAC: -0.146
CCTTTTTC: -0.203
CAGCTCCA: -0.254
GGCGCAGA: 0.21
ACCTATAG: -0.142
ACGCCCAC: -0.0683
GGGTCCCA: 0.00465
AACTGTTG: -0.153
AGACCGAT: 0.0567
CTCGGGCC: 0.183
CTTTTGGC: -0.0455
AGATACGA: -0.0866
GACATTCC: -0.0412
ACCAGAGT: -0.0901

Series 2
Target: RNA binding protein fox-1 homolog 2, RRM domain, GST-SBP tag (RBFOX2, Homo sapiens, UniProt O43251-10, residues 100-194)
Method: RNA Bind-n-Seq
Form: RNA
Sample: in vitro
Tested at: 365 nM
Notes: natural RNA segment, single round, ends assumed
Baseline: no-protein control
Direction: higher = stronger binding
Endpoint: RBNS enrichment (R)
Constant ends, left off below: GGGAGUUCUACAGUCCGACGAUC … UGGAAUUCUCGGGUGCCAA
Residues (chain): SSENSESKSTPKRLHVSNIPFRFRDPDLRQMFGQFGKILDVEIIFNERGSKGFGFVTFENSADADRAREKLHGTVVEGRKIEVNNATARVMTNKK
UCAUUUAAAAACUAUAUUUACAGAAGAUGUUUGGUUGCUGGGGGGGCUUUUUUAGGUUUUGGGGCAUUUGUUUUUUGUAAAUAAGAUGAUUAUGCUUUGUGGCUAUCCAU: 1.28
AGCCCCGCCCCCUGGAGCUGGCCCGGAUGGUUUCUGUCCCUUUGUUAUCCGUUGUCUCUGAAGUGGACAGUAUCCUUUCCUGCCCCGCCAAGCAUGCUCAGUGCCUUUUG: 5.3
CAAGUCAACCAAUGUAGAAAGCUUUGCUUAUGGUAAUAAAAAUGGCUCAUACUUAUAUAGCACUUACUUUGUUGCAAGUACUGCUGUAAAUAAAUGCUUUAUGCAAACCA: 0.324
CUUUGCUUUUCUCCCCAUAUCCCAAGGCGAAGCGCUGAGAUUCUUCCAUCUAAAAAACCCUCGACCCGAAACCCUCACCAGAUAAACUACAGUUUGUUUAGGAGGCCCUG: 0.465
UUUGCAGACCCUACACAGCGGCCCUGGAUAGUGAAUUUUACCCAGGUUUUUAGGGGUCAAGGAGGCCUCUAGUGACACAGGAACAGCUGUGGCCCUUUUUUGAAGCUACU: 0.325
AAACUGUCUGGUGUUGGGAAGGGAUGAGUUCUUGUAAAUCUGUAAAUAGCUUCAAUAAGAUGUAAAGUUUUACAAAUUCAAGGUGAUAUUAACACUUGUGUAGAACAUUC: 0.45
UAUAUGAUUGCUACUCUAAAGGUUUGGAUAUAUGUAUUGUAAUUAGAAUUGUUGGCAUGAUGACAUUUCAUUUGUGCCAAAAAUAUUAAAAAUGCCUUUUUUGGAAGGAC: 0.71
UGUUUUUAAUGUAAAGGUUAAACUUGAAAAGAAAUUCUUAAUCACGGUGCCAAAAUUCAUUUUCUAACACCAUGUGUUAGAAAAUUAUAAAAAAUAAAAUAAUUUUAGAA: 0.911
GGCUGAACUUGAUAGCAGACCUGCUCGGGUCCCUGCCUCCCACUCUGGCCUCUGCCUUUCUCCCUCCUGCCUUCUGCUUGGGGAACUCAGGGCUUCACUCCCAGAGCACC: 0.315
CUCAGCAGAACUAUAGCCAAUGUUUUGUUUUGUUUUCCUGAAUGCUAUCUUAUUUUUUUUCUUAUAGAAUUAAUCACAGGUCUUCUUAUCAUUGUGAAAACUCAUGUUGU: 0.796
UUCAGAAAGGUCAAUUCUCUUCUGUAUUCCCCCUCAACAUUUAUCUGGGUCUAAAGCUCAGCACUGAGUCACAAUUUCACACAAGAUCAAAGUGAGGCAGUGUUAGGAAA: 0.173
UAUGAAUAUGUUAAAGCUGGUGGCUCAGCUGGGAGAUUUAUAUGGGUCACUGUGCGAGCUUCCUUAUGACUUGAAUUUUGUUGUCACAUGAUAAAAGUUUCUGUGUAGCU: 0.634

Series 3
Target: CCNA1, cyclin fold, Cln2 fusion (human)
Method: yeast growth competition, sequencing
Sample: yeast
Notes: strong parent motif
Baseline: not given
Direction: higher = stronger binding
Endpoint: normalised enrichment score
Starting sequence: RBL2 docking peptide (human); STTRRRLFVENDS; partner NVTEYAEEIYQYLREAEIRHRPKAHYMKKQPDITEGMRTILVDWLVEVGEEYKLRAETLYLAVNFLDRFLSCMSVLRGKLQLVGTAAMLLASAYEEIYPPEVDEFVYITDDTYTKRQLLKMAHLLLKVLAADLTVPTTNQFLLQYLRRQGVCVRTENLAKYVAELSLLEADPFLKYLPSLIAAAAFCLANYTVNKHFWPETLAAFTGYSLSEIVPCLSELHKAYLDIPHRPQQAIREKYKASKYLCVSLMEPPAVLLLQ
E10F: 0.564
R4G: -0.00946
E10R: 0.334
N11Y: 0.352
L7M: 0.199
R6P: 0.251
V9I: 1.07
T3S: 0.431
S13M: 0.609
R6S: 0.231
R5Q: 0.592
R4Q: 0.11
R4C: 0.655
T3Y: 0.648
L7V: 0.212
S1W: 0.0198
R4E: 0.076
R4D: 0.137
R5W: 0.182
V9G: 0.493
N11F: 0.805
E10A: 0.215
N11T: 0.556
V9Q: 0.37
V9T: 0.684

Series 4
Target: Hepatocyte nuclear factor 3-alpha (Foxa1, Mus musculus, UniProt P35582, residues 1-468, full length assumed)
Method: EMSA with sequencing
Form: double-stranded DNA, one strand shown
Sample: in vitro
Tested at: 10 and 20 nM
Notes: whole designed probe, mean of two concentrations, ends assumed
Baseline: negative control set to 0
Direction: higher = stronger binding
Endpoint: normalised bound fraction
Constant ends, left off below: GTGAGCGGTGCCCATTGATGGGGAAC … TTTCACTGGGATCGTGGGGAC
Residues (chain): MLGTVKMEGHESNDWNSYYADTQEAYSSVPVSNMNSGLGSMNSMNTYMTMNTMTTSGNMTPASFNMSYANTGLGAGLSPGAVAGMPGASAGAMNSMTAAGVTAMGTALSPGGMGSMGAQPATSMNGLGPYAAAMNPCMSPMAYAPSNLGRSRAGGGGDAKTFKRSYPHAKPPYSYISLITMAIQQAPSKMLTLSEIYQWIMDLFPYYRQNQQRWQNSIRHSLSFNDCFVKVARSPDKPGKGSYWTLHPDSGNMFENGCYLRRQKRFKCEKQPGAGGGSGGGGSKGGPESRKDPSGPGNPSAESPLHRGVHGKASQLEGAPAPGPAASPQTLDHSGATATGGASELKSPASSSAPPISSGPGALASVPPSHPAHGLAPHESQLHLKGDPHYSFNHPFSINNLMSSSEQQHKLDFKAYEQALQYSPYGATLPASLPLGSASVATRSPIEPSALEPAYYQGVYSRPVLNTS
CCTTTGGGTTATTCACCTAGATCCCTTAAGGTTTAAAATCAATTCTACAGGGACTTTTGAACTTAGACTTTCACTCCATATGTTAGGACTTATTATTTACATTATAGTTTGCTGTTAACTTAGCTGTTTATGTAGGTGTTCAAAGCTACATGAACGGCGAACTATAAGGTAAATAAGAAGCTTTCCCAAGACA: 0.411 ratio
TAGCCCCTAAAATACTCCTCCTTTACGCCAAAAGATTCTCTTTTCAGCTGTGTTTAAAGTGAAACAATTTTTTATTACGAAAAATTTTGAAAATGTAAACATGCAAAAAAGATAAGCAAGACTGCTATAATCTAGAGCAAACCAATCTCAATATTTTGATGCATAGCCTTCTAAAATTTTTCTCTTTCTATAT: 0.238 ratio
ATGGTAGAGGGAGCTGGCCCTGCATACTGGTATCAGCGTAAAGAACAGTCAGGCGTGCCTGTGAGCAAGGCAGGGCCGTGACTCAGACTTCAGTAATCTCGAAGTGTGAGTTCAACCCAGAAAAATGCTGTCTCAGGTTTTGCAGACTTGTCAGAAATAAATCACCAACTTTAGGAAGCTTTGGTGCAAGAGC: -0.0726 ratio
GTGTGTGCGCGCGCGTGTGTGTGTGTTTTCTTAAGCCGGGCTATTCAAACCCTGCTGCAATTCTCCGGTAAAGGCAATGATTCATGGCATAATGCAAATAAACGGATTGCAAACGGCGCGGTTCGCGCACTTTGCAGCCGGCCCGGTGGAGCAGCCAGTGCCGGATTTCTCCCTTTTTTTGCAGATCTGCAGA: 0.394 ratio
ATCTTCCCCCTCTTCCTTGCCCCACCAGCTCACCTTCCCGGGTTATTTGCACAAAGGAAAATAAATAAAGCCGGCATTCGTTAACGCAGTTCACGCGCATACTGCTGTTTGCTCTGCATCTAACATGGTCCTTACGCGACGCCAGGCTCCGGGAGAGCAAAGCACCGTGTCAGGCGCATGATCCGGGCTCGCC: 0.389 ratio
CTGTTTTGATGATTTAGTAAAAAAAAAACTCTCCAAAATATTAATTTTCCATGTATACTTTCACAATTGTTTCCATATTTGTATATTTCCTGTAAATTACTTAATATTTCTAAGAGTACCTACAAGATGGCCTTTGCATTTAAAAGGAAAATATAAATAGAAGCTGTACTTCTTCTAATTCATATGAAAACGA: 0.0718 ratio
CAATGGGGTAGGTCAGCCCCAGTGAACTCTCAAATGACCACTGAAGGAGGAAGTGAGTGCAGAGTGTGATACCACTCACATCCCAGCCCAGACAGATTGCTCAGCTGGGAGGAGTGTTGCAATTCTTCTTCCTGCAGAGATAACACCCCTTCTCATGGCTTCAGGCATCACCTATCTCCTCTAGGCTGCGCTC: -0.0715 ratio
GGTATAACTAAACAAACAAACAAACAAAAAGATACTAAAGATACCGTCTATAATTGGACCCAGGTCAGTGGTGCCTCCAGGGTCCTGGCCAAAGTCAACACAGGGGGTTTGGAAGCGGAAGATAATATCAACAATGGCTAACACATTCAACGCACAAAACAGAATCCTGTTAGAACAGGTGAGAAGTAGGGCT: 0.552 ratio

Series 5
Target: Interferon regulatory factor 5, full length, phosphomimetic (IRF5, Homo sapiens, UniProt Q13568-2, residues 1-514, K96S/S451D/S453D/S456D/S462D)
Method: protein-binding microarray
Form: double-stranded DNA, one strand shown
Sample: in vitro
Tested at: 250 nM
Notes: 60-bp whole probe
Together with: salmon DNA 0.4 mg/ml
Baseline: random background probes
Direction: higher = stronger binding
Endpoint: log fluorescence
Constant ends, left off below: GCCTAGCAC … GTCTTGATTCGCTTGACGCTGCTG
TTCGAACTGGGGTTTCGATTAGTGCTA: 6.01 z-score
TCATGAATGCCCTCTAACACTGTGCTA: -0.134 z-score
ACTTCCCTCGGGTTGCGGAGCGTGCTA: -0.165 z-score
GACGAACTGAGACTGGAGAGGTGCTAG: -0.598 z-score
GACGGTTTCGGACTGGGAACGTGCTAG: 4.37 z-score
TTAGGTTTCGGACTGGGTCAGTGCTAG: 5.37 z-score
TCATATACCTGTATATCACTGTGCTAG: 0.681 z-score
GACGGACTGGGTACTGGGGACGTGCTA: -0.66 z-score
TTTCTGATCCATTTTGGTTTGTGCTAG: 5.75 z-score
GACGGATTCCTTTCCCTGACGTGCTAG: 0.481 z-score
TACGGTTTCGGACTGGGGACGTGCTAG: 3.92 z-score
TTAGGACTGGAATATCGGTTAGTGCTA: 3.26 z-score
TTTGAGCTCTGTCTGGGATGGTGCTAG: -0.268 z-score
TTAGATATCGGGATTCGATTAGTGCTA: 2.19 z-score
TCATAAACCATTTTGGTACTGTGCTAG: 0.524 z-score
GACGATATCGAGTTTCGAGACGTGCTA: 5.17 z-score
TTAGATTTCAGACTGGATGAGTGCTAG: 0.34 z-score
CTCTTCTTGCATCTGGGTATGTGCTAG: 0.334 z-score
GACGGTTTCCTACTGCTTACGTGCTAG: 0.544 z-score
TTGAGGTTTTCTCTGGTTCTGTGCTAG: 0.45 z-score
GACGGTTCCGGTTACGGGACGTGCTAG: 1.1 z-score
GACGATATCAGTTTCGACACGTGCTAG: 7.63 z-score
TCACATATAATTTTGTCACTGTGCTAG: 0.692 z-score
TCACTTTCCCAGCCTGGGACTGTGCTA: 0.542 z-score
